Measurements from different studies.
Parts stem from different laboratories: compare values within a part only.
UniProt Q14164, sequence (whole entry, looked up): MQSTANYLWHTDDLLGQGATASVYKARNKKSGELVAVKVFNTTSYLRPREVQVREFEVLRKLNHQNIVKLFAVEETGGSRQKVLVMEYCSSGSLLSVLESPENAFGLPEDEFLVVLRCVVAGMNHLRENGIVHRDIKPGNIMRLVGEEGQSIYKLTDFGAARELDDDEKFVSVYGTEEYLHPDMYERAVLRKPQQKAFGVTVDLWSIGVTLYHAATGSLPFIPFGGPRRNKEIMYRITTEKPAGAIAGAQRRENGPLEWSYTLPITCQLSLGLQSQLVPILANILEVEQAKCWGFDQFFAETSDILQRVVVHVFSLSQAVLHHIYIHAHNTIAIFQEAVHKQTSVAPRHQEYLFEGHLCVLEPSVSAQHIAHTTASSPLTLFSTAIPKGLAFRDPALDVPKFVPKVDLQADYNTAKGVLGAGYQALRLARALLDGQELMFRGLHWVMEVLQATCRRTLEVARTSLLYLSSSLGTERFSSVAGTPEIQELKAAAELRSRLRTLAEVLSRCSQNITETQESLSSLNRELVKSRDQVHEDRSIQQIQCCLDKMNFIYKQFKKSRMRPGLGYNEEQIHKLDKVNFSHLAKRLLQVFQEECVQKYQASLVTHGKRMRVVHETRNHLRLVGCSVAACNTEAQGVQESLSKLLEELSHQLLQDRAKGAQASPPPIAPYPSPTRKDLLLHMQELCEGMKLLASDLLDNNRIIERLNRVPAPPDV
UniProt P29376, sequence (whole entry, looked up): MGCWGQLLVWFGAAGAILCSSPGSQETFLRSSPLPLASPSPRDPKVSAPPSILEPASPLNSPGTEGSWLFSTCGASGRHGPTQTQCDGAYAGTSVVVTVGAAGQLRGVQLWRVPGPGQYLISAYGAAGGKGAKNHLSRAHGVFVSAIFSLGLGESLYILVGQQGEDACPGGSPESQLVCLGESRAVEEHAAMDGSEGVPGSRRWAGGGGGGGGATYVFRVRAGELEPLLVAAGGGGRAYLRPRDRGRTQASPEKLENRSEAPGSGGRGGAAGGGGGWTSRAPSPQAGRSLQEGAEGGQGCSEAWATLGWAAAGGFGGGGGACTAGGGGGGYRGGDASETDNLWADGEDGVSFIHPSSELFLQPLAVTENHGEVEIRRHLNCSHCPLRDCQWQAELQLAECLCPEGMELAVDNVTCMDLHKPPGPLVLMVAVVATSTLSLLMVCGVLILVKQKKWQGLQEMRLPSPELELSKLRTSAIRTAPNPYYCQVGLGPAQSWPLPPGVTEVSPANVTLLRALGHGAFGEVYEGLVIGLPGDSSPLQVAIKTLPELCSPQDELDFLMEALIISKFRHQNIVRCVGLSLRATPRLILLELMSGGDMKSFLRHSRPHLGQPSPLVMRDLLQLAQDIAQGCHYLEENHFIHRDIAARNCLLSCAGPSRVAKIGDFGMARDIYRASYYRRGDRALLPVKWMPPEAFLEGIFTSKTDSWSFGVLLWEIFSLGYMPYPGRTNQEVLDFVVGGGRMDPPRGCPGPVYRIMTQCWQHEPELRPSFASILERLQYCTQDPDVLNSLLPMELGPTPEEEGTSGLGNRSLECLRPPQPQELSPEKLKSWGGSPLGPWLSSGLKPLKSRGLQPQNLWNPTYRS
UniProt Q08345, sequence (whole entry, looked up): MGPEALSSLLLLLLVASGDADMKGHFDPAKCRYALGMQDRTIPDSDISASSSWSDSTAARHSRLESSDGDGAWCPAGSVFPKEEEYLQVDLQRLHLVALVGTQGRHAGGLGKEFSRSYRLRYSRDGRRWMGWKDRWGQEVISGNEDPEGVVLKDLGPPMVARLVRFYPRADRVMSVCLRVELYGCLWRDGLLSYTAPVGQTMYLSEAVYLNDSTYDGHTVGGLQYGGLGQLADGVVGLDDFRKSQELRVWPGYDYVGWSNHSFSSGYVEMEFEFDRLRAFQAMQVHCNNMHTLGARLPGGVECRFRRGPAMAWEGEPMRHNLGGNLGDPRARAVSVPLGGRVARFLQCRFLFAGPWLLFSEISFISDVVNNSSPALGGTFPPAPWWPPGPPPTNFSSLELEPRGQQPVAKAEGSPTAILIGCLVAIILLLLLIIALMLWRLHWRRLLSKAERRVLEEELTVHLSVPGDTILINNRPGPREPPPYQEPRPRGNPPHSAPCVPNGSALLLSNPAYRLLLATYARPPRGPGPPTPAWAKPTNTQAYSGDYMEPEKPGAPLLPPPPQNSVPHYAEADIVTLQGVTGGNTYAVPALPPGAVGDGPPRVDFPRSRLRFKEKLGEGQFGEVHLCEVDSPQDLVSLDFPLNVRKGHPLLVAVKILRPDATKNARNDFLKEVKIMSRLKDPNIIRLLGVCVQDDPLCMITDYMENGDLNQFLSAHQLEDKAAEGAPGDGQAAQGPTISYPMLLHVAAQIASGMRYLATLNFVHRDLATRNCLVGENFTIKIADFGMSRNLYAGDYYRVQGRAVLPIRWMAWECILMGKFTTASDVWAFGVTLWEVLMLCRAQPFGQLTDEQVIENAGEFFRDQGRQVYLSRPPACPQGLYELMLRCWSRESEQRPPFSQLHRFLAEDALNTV
UniProt Q8IY84, sequence (whole entry, looked up): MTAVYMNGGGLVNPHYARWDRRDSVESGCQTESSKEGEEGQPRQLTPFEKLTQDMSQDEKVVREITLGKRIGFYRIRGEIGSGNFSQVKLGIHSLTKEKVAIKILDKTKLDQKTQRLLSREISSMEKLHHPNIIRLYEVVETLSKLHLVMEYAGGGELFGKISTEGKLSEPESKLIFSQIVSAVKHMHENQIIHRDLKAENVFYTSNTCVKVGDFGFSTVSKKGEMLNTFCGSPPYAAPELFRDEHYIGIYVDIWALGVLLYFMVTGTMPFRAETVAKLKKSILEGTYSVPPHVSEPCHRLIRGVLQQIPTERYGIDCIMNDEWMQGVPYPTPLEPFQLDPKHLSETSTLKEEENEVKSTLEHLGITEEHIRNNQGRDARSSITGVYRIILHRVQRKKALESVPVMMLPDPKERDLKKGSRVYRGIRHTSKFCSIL

Set 1
SMILES: C[C@@H]1CN(c2ccc(-c3cc(C(=O)NCCOCCOCCOCCOCCNC(=O)/C=C/c4[nH]cc(C(=O)N[C@@H](CC(N)=O)c5ccc(F)c(Cl)c5)c4-c4ccc(Cl)cc4F)ccc3F)cc2NC(=O)c2c[nH]c(=O)cc2C(F)(F)F)C[C@H](C)N1C
Observed: thermal unfolding
Method: differential scanning fluorimetry
Tested at: 5.5 µM
Reading: higher = more unfolded
WDR5: WD repeat-containing protein 5 (WDR5, Homo sapiens, UniProt P61964)
DCAF1: DDB1- and CUL4-associated factor 1 (DCAF1, Homo sapiens, UniProt Q9Y4B6)
UniProt Q9Y4B6, sequence (whole entry, looked up): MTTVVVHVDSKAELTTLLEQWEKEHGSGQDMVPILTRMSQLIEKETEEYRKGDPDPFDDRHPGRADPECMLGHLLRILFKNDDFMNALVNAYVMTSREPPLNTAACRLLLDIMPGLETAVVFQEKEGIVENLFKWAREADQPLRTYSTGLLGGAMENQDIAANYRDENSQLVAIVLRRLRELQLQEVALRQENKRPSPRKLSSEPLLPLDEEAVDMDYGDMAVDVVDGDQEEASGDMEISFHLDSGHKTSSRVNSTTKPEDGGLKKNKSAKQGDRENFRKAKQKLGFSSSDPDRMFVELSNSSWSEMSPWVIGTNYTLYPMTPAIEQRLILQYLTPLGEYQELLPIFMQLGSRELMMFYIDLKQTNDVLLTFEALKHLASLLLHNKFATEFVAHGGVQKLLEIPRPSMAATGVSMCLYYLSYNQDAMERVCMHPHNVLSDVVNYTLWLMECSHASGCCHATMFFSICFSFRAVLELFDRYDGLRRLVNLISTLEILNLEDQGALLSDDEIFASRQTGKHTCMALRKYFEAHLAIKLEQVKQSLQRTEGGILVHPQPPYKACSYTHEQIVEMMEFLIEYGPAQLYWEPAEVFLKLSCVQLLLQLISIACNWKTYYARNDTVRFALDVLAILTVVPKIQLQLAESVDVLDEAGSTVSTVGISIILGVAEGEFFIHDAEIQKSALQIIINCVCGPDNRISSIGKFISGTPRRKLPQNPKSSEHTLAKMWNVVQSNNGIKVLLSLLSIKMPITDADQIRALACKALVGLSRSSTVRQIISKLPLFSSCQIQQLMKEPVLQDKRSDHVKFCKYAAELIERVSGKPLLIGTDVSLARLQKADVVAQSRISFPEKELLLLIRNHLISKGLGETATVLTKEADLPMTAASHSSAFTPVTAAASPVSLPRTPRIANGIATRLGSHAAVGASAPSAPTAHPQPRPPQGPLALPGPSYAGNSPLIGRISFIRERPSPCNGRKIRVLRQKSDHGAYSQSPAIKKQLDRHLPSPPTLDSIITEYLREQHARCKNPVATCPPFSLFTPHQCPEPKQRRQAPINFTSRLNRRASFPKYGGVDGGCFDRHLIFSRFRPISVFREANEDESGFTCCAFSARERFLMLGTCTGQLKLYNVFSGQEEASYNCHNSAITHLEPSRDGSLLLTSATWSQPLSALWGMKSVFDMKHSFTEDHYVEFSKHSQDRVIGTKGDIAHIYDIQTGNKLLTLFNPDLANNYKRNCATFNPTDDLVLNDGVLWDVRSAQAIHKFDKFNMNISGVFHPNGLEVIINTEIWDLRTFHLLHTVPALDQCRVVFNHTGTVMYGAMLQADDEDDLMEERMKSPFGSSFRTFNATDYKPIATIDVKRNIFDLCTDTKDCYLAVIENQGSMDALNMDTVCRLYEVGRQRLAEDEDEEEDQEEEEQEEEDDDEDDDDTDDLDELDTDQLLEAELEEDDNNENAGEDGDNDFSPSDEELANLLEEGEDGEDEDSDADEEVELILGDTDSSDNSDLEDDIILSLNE
target | setting | SYPRO Orange fluorescence
WDR5 | 32.4 °C | 12700 a.u.
WDR5 | 77.81 °C | 33700 a.u.
WDR5 | 75.01 °C | 25800 a.u.
WDR5 | 45 °C | 15300 a.u.
DCAF1 | 38.2 °C | 11000 a.u.
WDR5 | 83.21 °C | 49000 a.u.
DCAF1 | 40.4 °C | 11700 a.u.
DCAF1 | 41.8 °C | 12200 a.u.

Set 2
Compound: Cc1cc(NCC(=O)NC(C)C)ccc1Br
Target: Sodium-dependent neutral amino acid transporter B(0)AT1 (SLC6A19, Homo sapiens, UniProt Q695T7)
UniProt Q695T7, sequence (whole entry, looked up): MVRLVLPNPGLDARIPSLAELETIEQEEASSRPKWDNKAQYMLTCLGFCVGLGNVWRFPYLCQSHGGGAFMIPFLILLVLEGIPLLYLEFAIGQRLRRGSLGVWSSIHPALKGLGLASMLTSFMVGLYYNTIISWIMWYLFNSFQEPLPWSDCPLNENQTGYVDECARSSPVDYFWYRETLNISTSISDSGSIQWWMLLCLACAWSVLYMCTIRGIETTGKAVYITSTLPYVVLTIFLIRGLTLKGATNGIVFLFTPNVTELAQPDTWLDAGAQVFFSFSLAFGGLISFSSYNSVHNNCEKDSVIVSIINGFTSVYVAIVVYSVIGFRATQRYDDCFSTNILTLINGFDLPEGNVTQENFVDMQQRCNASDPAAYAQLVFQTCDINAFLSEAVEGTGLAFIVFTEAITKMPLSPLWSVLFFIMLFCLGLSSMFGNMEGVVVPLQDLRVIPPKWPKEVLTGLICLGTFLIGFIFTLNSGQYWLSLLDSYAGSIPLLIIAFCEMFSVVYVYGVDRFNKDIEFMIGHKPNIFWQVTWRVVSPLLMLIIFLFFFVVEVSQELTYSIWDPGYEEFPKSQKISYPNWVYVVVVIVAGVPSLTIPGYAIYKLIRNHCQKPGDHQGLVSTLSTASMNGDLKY
Mode: inhibitor
Cells: CHO-BC cells
Setting: unit not given
Reference: uninhibited cells
assay | setting | remaining transport activity
FLIPR membrane potential | 0.03 µM | 0.761
FLIPR membrane potential | 0.003 µM | 0.997
L-[14C]leucine uptake | 0.01 µM, 6 min, 37 °C, together with: GPNA 3 mM, JPH203 3 µM | 0.941

Set 3
SMILES: CCN1/C(=C/C=C2\CCCC(/C=C/C3=[N+](CC)c4ccccc4C3(C)C)=C2NCCCCCCCCN2CCC(Nc3nc4ccccc4n3Cc3ccc(F)cc3)CC2)C(C)(C)c2ccccc21
Cell line: U-87 MG
Tested at: concentration not given
Reference: DMSO
assay | log2 fold change
item: IMPDH1 mRNA | -0.956
item: ZNF512B mRNA | -0.878
item: JPH2 mRNA | -1.67
item: CIPC mRNA | 0.979
item: ITGA4 mRNA | -1.78
item: RBM7 mRNA | 0.862
item: GASK1B mRNA | -4.41
item: MAPK10 mRNA | -1.59
item: ACTN4 mRNA | -1.02
item: TRIM55 mRNA | -3.09
item: FAT2 mRNA | -1.33

Set 4
Structure (SMILES): CC[C@@]1(c2cccc(C(F)(F)F)c2)C2=C(Nc3n[nH]cc31)[C@H](F)C(C)(C)CC2=O (single isomer, unassigned)
Tested at: 1 µM
target | assay | how to read | remaining binding [%]
NIM1K (Homo sapiens, UniProt Q8IY84) | binding, competition with immobilised ligand |  | 94
IKBKE (Homo sapiens, UniProt Q14164) | binding, competition with immobilised ligand |  | 100
Ribosomal protein S6 kinase alpha-4, N-terminal kinase domain (RPS6KA4, Homo sapiens, UniProt O75676) | kinase binding, KINOMEscan | reference: DMSO control | 80
LTK (Homo sapiens, UniProt P29376) | kinase binding, KINOMEscan | reference: DMSO control | 100
DDR1 (Homo sapiens, UniProt Q08345) | kinase binding, KINOMEscan | reference: DMSO control | 99
WNK2 (Homo sapiens, UniProt Q9Y3S1) | binding, competition with immobilised ligand |  | 100
Non-receptor tyrosine-protein kinase TYK2, JH1 (TYK2, Homo sapiens, UniProt P29597) | binding, competition with immobilised ligand |  | 100
MAPK14 (Homo sapiens, UniProt Q16539) | binding, competition with immobilised ligand |  | 100
STK10 (Homo sapiens, UniProt O94804) | binding, competition with immobilised ligand |  | 100
PTK2B (Homo sapiens, UniProt Q14289) | kinase binding, KINOMEscan | reference: DMSO control | 100
MAP3K6 (Homo sapiens, UniProt O95382) | kinase binding, KINOMEscan | reference: DMSO control | 100
CSNK1G1 (Homo sapiens, UniProt Q9HCP0) | binding, competition with immobilised ligand |  | 56
WNK1 (Homo sapiens, UniProt Q9H4A3) | kinase binding, KINOMEscan | reference: DMSO control | 100

A few entries again (set 4):
target | assay | how to read | remaining binding [%]
IKBKE (Homo sapiens, UniProt Q14164) | binding, competition with immobilised ligand |  | 100
Ribosomal protein S6 kinase alpha-4, N-terminal kinase domain (RPS6KA4, Homo sapiens, UniProt O75676) | kinase binding, KINOMEscan | reference: DMSO control | 80
LTK (Homo sapiens, UniProt P29376) | kinase binding, KINOMEscan | reference: DMSO control | 100
DDR1 (Homo sapiens, UniProt Q08345) | kinase binding, KINOMEscan | reference: DMSO control | 99
WNK2 (Homo sapiens, UniProt Q9Y3S1) | binding, competition with immobilised ligand |  | 100
Non-receptor tyrosine-protein kinase TYK2, JH1 (TYK2, Homo sapiens, UniProt P29597) | binding, competition with immobilised ligand |  | 100
